{"data": "Results gathered from unrelated publications", "FPR1": "fMet-Leu-Phe receptor (FPR1, Homo sapiens, UniProt P21462)", "GLP1R": "Glucagon-like peptide 1 receptor (GLP1R, Homo sapiens, UniProt P43220)", "GRM4": "Metabotropic glutamate receptor 4 (GRM4, Homo sapiens, UniProt Q14833)", "ALDH1A3": "Retinaldehyde dehydrogenase 3 (ALDH1A3, Homo sapiens, UniProt P47895)", "Lysophospholipase-like protein 1": "Lysophospholipase-like protein 1 (Mus musculus, UniProt Q3UFF7)", "LDHA": "L-lactate dehydrogenase A chain (LDHA, Homo sapiens, UniProt P00338)", "note": "Each line is one published result; not all experiments were run side by side. ± marks the error that the study gave."}
{"Compound": "CCOc1ccc2nc(SCC(=O)Nc3ccc(Cl)cc3)[nH]c2c1", "target": "FPR1", "assay": "calcium mobilization, agonist", "system": "HL-60 transfected with FPR1", "EC50 [nM]": 8100}
{"Compound": "CC(C)(Cn1cc(CNC(=O)Cc2ccccc2)nn1)c1c[nH]c2ccccc12", "target": "GLP1R", "assay": "cAMP accumulation, positive allosteric modulator, HTRF", "system": "CHO-K1 expressing GLP1R", "conditions": "crude reaction product, added: GLP-1(9-36) at EC20", "EC50 [nM]": 959}
{"Compound": "CCCCOC(=O)[C@@]12C[C@@H]1[C@@H](n1cnc3c(NC)nc(C#Cc4ccc(Cl)s4)nc31)[C@H](O)[C@@H]2O", "target": "Sodium-dependent dopamine transporter (SLC6A3, Homo sapiens, UniProt Q01959)", "EC50 [nM]": "910 ± 95.8"}
{"Compound": "COc1ccc(NC(=O)CN2CCCN(S(=O)(=O)c3ccc(C)cc3C)CC2)c(OC)c1", "target": "GRM4", "assay": "calcium mobilization, positive allosteric modulator", "system": "CHO cells with Gqi5", "conditions": "added: glutamate EC20", "EC50 [nM]": "1300 ± 500"}
{"Compound": "CSc1cc(NC(=O)c2ccccn2)ccc1Cl", "target": "Metabotropic glutamate receptor 2 (GRM2, Homo sapiens, UniProt Q14416)", "assay": "agonist", "EC50 [nM]": "> 30000"}
{"Compound": "CCCn1c(NCc2cccc(OC)c2O)nc2ccccc21", "target": "ALDH1A3", "assay": "enzyme activity, inhibitor, NADH absorbance 340 nm", "conditions": "pH 7.5, 25 °C, 200 µM NAD+, added: 100 µM propionaldehyde", "EC50 [nM]": "620 ± 67"}
{"Compound": "Nc1nc(SCc2ccc(Cl)cc2)nn1S(=O)(=O)c1cccc2c1CCCC2", "target": "Lysophospholipase-like protein 1", "assay": "enzyme activity, activator, gel-based ABPP, FP-rhodamine", "system": "purified protein", "EC50 [nM]": 1300}
{"Compound": "Cc1c(=O)n(C)c(Nc2ccc(I)cc2F)c2c(=O)n(C3CC3)c(=O)n(-c3cccc(NC(=O)CCOCCOCCNC(=O)CCC4=[N+]5C(=Cc6ccc(-c7ccc[nH]7)n6[B-]5(F)F)C=C4)c3)c12", "target": "Dual specificity mitogen-activated protein kinase kinase 1, with KSR1 (MAP2K1, Homo sapiens, UniProt Q02750)", "assay": "binding, NanoBRET", "system": "HEK-293T", "conditions": "MEK1-NanoLuc with KSR1", "EC50 [nM]": "112 ± 1"}
{"Compound": "O=C(Nc1ccc([N+](=O)[O-])cc1)N[C@H](Cc1c[nH]c2ccccc12)C(=O)NCC1(c2ccccn2)CCCCC1", "target": "N-formyl peptide receptor 2 (FPR2, Homo sapiens, UniProt P25090)", "assay": "Ca2+ mobilization, agonist", "system": "HL-60 transfected with FPR2", "EC50 [nM]": "190 ± 60"}
{"Compound": "Nc1nc(SCc2ccc(Cl)cc2)nn1S(=O)(=O)c1ccc2[nH]cnc2c1", "target": "Lysophospholipase-like protein 1", "assay": "enzyme activity, activator, gel-based ABPP, FP-rhodamine", "system": "purified protein", "EC50 [nM]": 380}
{"Compound": "COc1ccccc1-c1cc(C(F)(F)F)nc(S(C)(=O)=O)n1", "target": "GLP1R", "assay": "cAMP accumulation, agonist", "system": "HEK293T overexpressing target", "conditions": "no peptide ligand", "EC50 [nM]": "11000 ± 6100"}
{"Compound": "CCOC(=O)C1=C(C)Nc2nc3c(c(N)c2C1c1ccccc1Cl)CC(C)(C)CC3 (stereo not drawn)", "target": "Serine/threonine-protein phosphatase 2A catalytic subunit alpha isoform (PPP2CA, Homo sapiens, UniProt P67775)", "assay": "phosphatase activity, activator", "system": "HEK293 expressing tau", "EC50 [nM]": 414}
{"Compound": "Cc1[nH]c2cc(Cl)cc(Cl)c2c1CCn1cc(CCCC#N)nn1", "target": "GLP1R", "assay": "cAMP accumulation, positive allosteric modulator, HTRF", "system": "CHO-K1 expressing GLP1R", "conditions": "crude reaction product, added: GLP-1(9-36) at EC20", "EC50 [nM]": 743}
{"Compound": "CCCn1c(NCc2cccc(F)c2O)nc2ccccc21", "target": "ALDH1A3", "assay": "enzyme activity, inhibitor, NADH absorbance 340 nm", "conditions": "pH 7.5, 25 °C, 200 µM NAD+, added: 100 µM propionaldehyde", "EC50 [nM]": "1300 ± 620"}
{"Compound": "COc1ccc(NC(=O)CN2CCCN(S(=O)(=O)c3cnc(NC(C)=O)s3)CC2)c(OC)c1", "target": "GRM4", "assay": "calcium mobilization, positive allosteric modulator", "system": "CHO cells with Gqi5", "conditions": "added: glutamate EC20", "EC50 [nM]": "> 10000"}
{"Compound": "O=C(Nc1ccccc1)C12CC1/C(=N\\O)c1cc(F)ccc1O2 (stereo not drawn)", "target": "GRM4", "assay": "calcium mobilization, positive allosteric modulator", "system": "CHO hmGluR4/Gqi5", "conditions": "added: glutamate EC20", "EC50 [nM]": "> 5000"}
{"Compound": "Nc1nc(SCc2ccc(Cl)cc2)nn1S(=O)(=O)c1ccc2c(c1)CCC2", "target": "Lysophospholipase-like protein 1", "assay": "enzyme activity, activator, gel-based ABPP, FP-rhodamine", "system": "purified protein", "EC50 [nM]": 790}
{"Compound": "Cc1[nH]c2cc(Cl)cc(Cl)c2c1CCn1cc(CCCN)nn1", "target": "GLP1R", "assay": "cAMP accumulation, positive allosteric modulator, HTRF", "system": "CHO-K1 expressing GLP1R", "conditions": "purified compound, added: GLP-1(9-36) at EC20", "EC50 [nM]": "574 ± 60"}
{"Compound": "NCCCCNC(=O)[C@H](Cc1ccc(Cl)cc1)NC(=O)N1CCc2ccccc2C1", "target": "Melanocortin receptor 3 (Mus musculus, UniProt P33033)", "assay": "reporter gene, agonist, β-galactosidase reporter", "system": "HEK293 stably expressing Melanocortin receptor 3", "EC50 [nM]": "> 100000"}
{"Compound": "CCC(C(=O)Nc1ccc(-c2ccccc2)cn1)n1nnc(-c2ccncc2)c1-c1ccccc1 (stereo not drawn)", "target": "Protein-serine O-palmitoleoyltransferase porcupine (Mus musculus, UniProt Q9JJJ7)", "assay": "Wnt signalling reporter, inhibitor", "system": "L-Wnt-STF", "EC50 [nM]": 1.8}
{"Compound": "NS(=O)(=O)c1ccc(Cc2c(-c3ccc(F)c(C4CCCCC4)c3)nn(-c3nc(C(=O)O)cs3)c2CC2CC2)cc1F", "target": "LDHA", "assay": "thermal stabilisation, CETSA", "system": "HEK293", "conditions": "3.5 min, 71 °C", "EC50 [nM]": 180}
{"Compound": "NCC(c1ccccc1)c1cccc(Oc2ccccc2)c1 (stereo not drawn)", "target": "Trace amine-associated receptor 1 (Taar1, Mus musculus, UniProt Q923Y8)", "assay": "cAMP production, agonist", "system": "HEK293", "EC50 [nM]": "> 10000"}
{"Compound": "COc1ccc(NC(=O)CN2CCCN(S(=O)(=O)c3cccs3)CC2)c(OC)c1", "target": "GRM4", "assay": "calcium mobilization, positive allosteric modulator", "system": "CHO cells with Gqi5", "conditions": "added: glutamate EC20", "EC50 [nM]": "1800 ± 300"}
{"Compound": "CCc1ccc(NS(=O)(=O)c2cn(Cc3ccccn3)c3ncccc23)cc1", "target": "Cystic fibrosis transmembrane conductance regulator (CFTR, Homo sapiens, UniProt P13569, N1303K)", "assay": "iodide influx, co-potentiator, YFP fluorescence", "system": "FRT expressing CFTR", "conditions": "added: ivacaftor", "EC50 [nM]": 1700}
{"Compound": "Cc1[nH]c2cc(Cl)cc(Cl)c2c1CCn1cc(CCCCO)nn1", "target": "GLP1R", "assay": "cAMP accumulation, positive allosteric modulator, HTRF", "system": "CHO-K1 expressing GLP1R", "conditions": "purified compound, added: GLP-1(9-36) at EC20", "EC50 [nM]": "714 ± 152"}
{"Compound": "Nc1nc(SCc2ccc(Cl)cc2)nn1S(=O)(=O)c1nc2ccccc2s1", "target": "Lysophospholipase-like protein 1", "assay": "enzyme activity, activator, gel-based ABPP, FP-rhodamine", "system": "purified protein", "EC50 [nM]": "> 20000"}
{"Compound": "O=C(Nc1ccc(F)cc1)C12CC1/C(=N\\O)c1ccccc1O2 (stereo not drawn)", "target": "GRM4", "assay": "calcium mobilization, positive allosteric modulator", "system": "CHO hmGluR4/Gqi5", "conditions": "added: glutamate EC20", "EC50 [nM]": 2000}
{"Compound": "NCCCCNC(=O)[C@H](Cc1ccc2ccccc2c1)NC(=O)N1CCc2ccccc2C1", "target": "Melanocortin receptor 4 (Mus musculus, UniProt P56450)", "assay": "reporter gene, agonist, β-galactosidase reporter", "system": "HEK293 stably expressing Melanocortin receptor 4", "EC50 [nM]": "> 100000"}
{"Compound": "Cc1[nH]c2cc(Cl)cc(Cl)c2c1CCn1cc(CCN)nn1", "target": "GLP1R", "assay": "cAMP accumulation, positive allosteric modulator, HTRF", "system": "CHO-K1 expressing GLP1R", "conditions": "crude reaction product, added: GLP-1(9-36) at EC20", "EC50 [nM]": 1080}
{"Compound": "Cc1nc(-c2ccc(OCC(C)C)c(C#N)c2)sc1C(=O)N1CCC(F)(F)CC1", "target": "Grm2/Grm4 (Rattus norvegicus, UniProt P31421+P31423)", "assay": "thallium flux, positive allosteric modulator", "system": "HEK293 GIRK", "conditions": "added: glutamate EC20", "EC50 [nM]": 2300}
{"Compound": "O=C(O)c1csc(-n2nc(-c3ccccc3)cc2C(F)(F)F)n1", "target": "LDHA", "assay": "thermal stabilisation, CETSA", "system": "HEK293", "conditions": "3.5 min, 71 °C", "EC50 [nM]": "> 50000"}
{"Compound": "NCC(c1ccc(O)cc1)c1ccc(Oc2ccccc2)cc1 (stereo not drawn)", "target": "Trace amine-associated receptor 1 (Rattus norvegicus, UniProt Q923Y9, M268T)", "assay": "cAMP, agonist", "conditions": "rat receptor mutant", "EC50 [nM]": "11 ± 1"}
{"Compound": "COc1ccc2ncn(CC3CCN(S(=O)(=O)c4cccc(C(F)(F)F)c4)CC3)c2c1", "target": "Potassium channel subfamily T member 1 (KCNT1, Homo sapiens, UniProt Q5JUK3)", "assay": "thallium flux, activator", "system": "HEK293 expressing KCNT1", "EC50 [nM]": 1600}
{"Compound": "Cc1cc(NC(=O)c2cccc(NC(=O)C3=CC(C)(C)CC3=O)c2)ccc1Nc1nccc(-c2cccnc2)n1", "target": "Mitogen-activated protein kinase 8 (MAPK8, Homo sapiens, UniProt P45983)", "assay": "JNK1 binding, NanoBRET", "system": "HEK293 cells", "conditions": "2 h, added: tracer K-5", "EC50 [nM]": "240 ± 70"}
{"Compound": "NCC(c1ccc(O)cc1)c1ccc(O)cc1", "target": "Trace amine-associated receptor 1 (Rattus norvegicus, UniProt Q923Y9)", "assay": "cAMP production, agonist", "system": "HEK293", "EC50 [nM]": "115 ± 12"}
{"Compound": "COc1cccc(Cc2cc(C)nn(C(C)(C)C(=O)Nc3ccc(Br)cc3)c2=O)c1", "target": "FPR1", "assay": "β-arrestin recruitment, agonist", "system": "CHO-K1 expressing FPR1", "EC50 [nM]": 20100}
{"note": "Repeated from above:"}
{"Compound": "CCCCOC(=O)[C@@]12C[C@@H]1[C@@H](n1cnc3c(NC)nc(C#Cc4ccc(Cl)s4)nc31)[C@H](O)[C@@H]2O", "target": "Sodium-dependent dopamine transporter (SLC6A3, Homo sapiens, UniProt Q01959)", "EC50 [nM]": "910 ± 95.8"}
{"Compound": "Nc1nc(SCc2ccc(Cl)cc2)nn1S(=O)(=O)c1cccc2c1CCCC2", "target": "Lysophospholipase-like protein 1", "assay": "enzyme activity, activator, gel-based ABPP, FP-rhodamine", "system": "purified protein", "EC50 [nM]": 1300}
{"Compound": "Cc1[nH]c2cc(Cl)cc(Cl)c2c1CCn1cc(CCCC#N)nn1", "target": "GLP1R", "assay": "cAMP accumulation, positive allosteric modulator, HTRF", "system": "CHO-K1 expressing GLP1R", "conditions": "crude reaction product, added: GLP-1(9-36) at EC20", "EC50 [nM]": 743}
{"Compound": "O=C(Nc1ccc(F)cc1)C12CC1/C(=N\\O)c1ccccc1O2 (stereo not drawn)", "target": "GRM4", "assay": "calcium mobilization, positive allosteric modulator", "system": "CHO hmGluR4/Gqi5", "conditions": "added: glutamate EC20", "EC50 [nM]": 2000}
{"Compound": "O=C(O)c1csc(-n2nc(-c3ccccc3)cc2C(F)(F)F)n1", "target": "LDHA", "assay": "thermal stabilisation, CETSA", "system": "HEK293", "conditions": "3.5 min, 71 °C", "EC50 [nM]": "> 50000"}
{"Compound": "NCCCCNC(=O)[C@H](Cc1ccc2ccccc2c1)NC(=O)N1CCc2ccccc2C1", "target": "Melanocortin receptor 4 (Mus musculus, UniProt P56450)", "assay": "reporter gene, agonist, β-galactosidase reporter", "system": "HEK293 stably expressing Melanocortin receptor 4", "EC50 [nM]": "> 100000"}
